Experimental data gathered from unrelated publications.
Each numbered part is a random draw from the data of one study; scales do not carry over between parts.
Chain of UniProt P54753 (whole entry, looked up): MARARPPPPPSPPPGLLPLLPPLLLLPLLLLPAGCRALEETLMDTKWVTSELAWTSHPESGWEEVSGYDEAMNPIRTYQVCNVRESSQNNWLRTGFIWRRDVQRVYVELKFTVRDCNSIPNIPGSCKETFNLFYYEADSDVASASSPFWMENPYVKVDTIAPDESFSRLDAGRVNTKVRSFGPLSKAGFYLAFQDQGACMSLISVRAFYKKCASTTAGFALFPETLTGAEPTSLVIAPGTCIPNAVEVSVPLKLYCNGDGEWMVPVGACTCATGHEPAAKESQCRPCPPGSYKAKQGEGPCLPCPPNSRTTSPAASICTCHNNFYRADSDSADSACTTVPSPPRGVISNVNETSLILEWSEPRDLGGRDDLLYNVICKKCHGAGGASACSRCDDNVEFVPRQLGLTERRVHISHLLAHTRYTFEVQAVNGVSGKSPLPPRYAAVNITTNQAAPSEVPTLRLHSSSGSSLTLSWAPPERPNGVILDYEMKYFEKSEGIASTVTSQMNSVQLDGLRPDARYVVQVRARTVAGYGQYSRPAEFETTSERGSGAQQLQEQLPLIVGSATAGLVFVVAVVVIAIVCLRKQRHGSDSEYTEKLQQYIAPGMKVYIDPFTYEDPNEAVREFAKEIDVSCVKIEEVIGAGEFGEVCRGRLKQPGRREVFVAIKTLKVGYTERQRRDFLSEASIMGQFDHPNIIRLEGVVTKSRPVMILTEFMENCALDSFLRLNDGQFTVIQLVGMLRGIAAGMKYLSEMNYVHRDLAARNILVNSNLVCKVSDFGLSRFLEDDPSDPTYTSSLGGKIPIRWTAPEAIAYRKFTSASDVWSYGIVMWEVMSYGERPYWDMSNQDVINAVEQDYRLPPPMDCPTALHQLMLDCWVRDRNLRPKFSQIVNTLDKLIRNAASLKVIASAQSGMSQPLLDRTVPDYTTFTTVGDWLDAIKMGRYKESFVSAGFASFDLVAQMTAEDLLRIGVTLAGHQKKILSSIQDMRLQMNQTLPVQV

Sample 1 — method: protein-binding microarray; molecule type: hairpin DNA; matrix: in vitro; tested at: not given; relative to: not given; reading: higher = stronger binding; shared flanks, not repeated: GAGGCCCGAAAG … CTTTCGGGCCTCACAC
Target: Interferon regulatory factor 1, DNA-binding domain (IRF1, Homo sapiens, UniProt P10914, residues 1-114)
Notes: whole hairpin DNA, median over replicate spots
Construct (chain): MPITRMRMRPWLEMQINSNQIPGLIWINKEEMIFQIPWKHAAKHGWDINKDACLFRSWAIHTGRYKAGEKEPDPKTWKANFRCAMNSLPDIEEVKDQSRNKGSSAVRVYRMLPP
`TGACACGCCTCCTGGCGTGTCA` has a median fluorescence of 558 a.u.
`TGAAAGGCCTCCTGGCCTTTCA (5mC at 29)` gave a median fluorescence of 1080 a.u.
The median fluorescence of `TGGAACGCCTCCTGGCGTTCCA` is reported as 569 a.u.
With `CCGAACGCCTCCTGGCGTTCGG (5mC at 32)` the median fluorescence was 508 a.u.
The median fluorescence of `TGAAACGCCTCCTGGCGTTTCA (5mC at 35)` is reported as 1460 a.u.
`TGAACGGCCTCCTGGCCGTTCA (5mC at 29)` gave a median fluorescence of 554 a.u.
With `TGGAACGCCTCCTGGCGTTCCA (5mC at 32)` the median fluorescence was 540 a.u.
With `CGAAACGCCTCCTGGCGTTTCG (5mC at 33 39)` the median fluorescence was 949 a.u.

Sample 2 — method: protein binding microarray; molecule type: double-stranded DNA, one strand shown; matrix: in vitro; tested at: not given; relative to: not given; reading: higher = stronger binding
Target: Histone acetyltransferase KAT6A, winged helix 1, GST fusion (KAT6A, Homo sapiens, UniProt Q92794, residues 1-85)
Notes: 8-mer, flanks averaged, mean of 2 arrays, mostly near background
Target sequence (chain): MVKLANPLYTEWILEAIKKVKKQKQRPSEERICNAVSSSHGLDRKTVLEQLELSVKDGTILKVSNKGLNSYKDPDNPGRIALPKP
`CTGTATGC` gave an E-score of -0.0816.
`CCTATTTA` gave an E-score of -0.0146.
For `AAGAATCC`, the E-score was -0.0773.
With `GCTCTCCC` the E-score was 0.13.
The E-score of `CAATGATC` is reported as 0.0494.
`GCAACCCA` gave an E-score of -0.0814.
For `CGCTTACA`, the E-score was 0.0249.
With `AAAGGCCT` the E-score was -0.0417.

Sample 3 — method: aptamer microarray, sandwich; molecule type: DNA with 2'F-ANA; matrix: in vitro; tested at: 200 nM; with: Cy3 exosite-II aptamer, 400 nM; reading: higher = stronger binding; oligonucleotide: GGTTGGTGTGGTTGG
Target: Prothrombin, mature alpha-thrombin (F2, Homo sapiens, UniProt P00734)
Notes: whole 15-mer aptamer, many near background
`2'F-ANA at 2 3 4 5 6 12 13`: “mean fluorescence intensity” 117 a.u.
For `2'F-ANA at 10 11 13 15`, “mean fluorescence intensity” read 147 a.u.
`2'F-ANA at 1 2 3 6 7 8 9 15` — result for “mean fluorescence intensity”: 227 a.u.
`2'F-ANA at 1 4 6 12 13 15` — result for “mean fluorescence intensity”: 198 a.u.
`2'F-ANA at 2 3 4 7 10 11 12 15`: “mean fluorescence intensity” 344 a.u.
`2'F-ANA at 2 4 6 12`: “mean fluorescence intensity” 546 a.u.
`2'F-ANA at 2 5 6 7 8 9 10 11 14 15` — result for “mean fluorescence intensity”: 47.3 a.u.
`2'F-ANA at 1 3 4 5 6 9 10 14`: “mean fluorescence intensity” 49.5 a.u.

Mixed results
With `CN([C@@H](Cc1ccc(OS(=O)(=O)c2cccc3cnccc23)cc1)C(=O)N1CCN(c2ccccc2)CC1)S(=O)(=O)c1cccc2cnccc12` the remaining activity was 97% (Ephrin type-B receptor 3 (EPHB3, Homo sapiens, UniProt P54753); enzyme activity, inhibitor; 0.5 µM; relative to: control).
